Results of several laboratories.
Numbered parts are unrelated; each lists some results of a single study. Substitutions count along the parent as printed.

Series 1 — method: RNA Bind-n-Seq; molecule type: RNA; matrix: in vitro; tested at: not given; setting: RNA with constant flanks, ends assumed; relative to: input RNA pool; direction: higher = stronger binding
Target: RING finger protein unkempt homolog, zinc fingers 1-6, GST-SBP tag (UNK, Homo sapiens, UniProt Q9C0B0, residues 30-357)
UniProt Q9C0B0, sequence (30-357, looked up): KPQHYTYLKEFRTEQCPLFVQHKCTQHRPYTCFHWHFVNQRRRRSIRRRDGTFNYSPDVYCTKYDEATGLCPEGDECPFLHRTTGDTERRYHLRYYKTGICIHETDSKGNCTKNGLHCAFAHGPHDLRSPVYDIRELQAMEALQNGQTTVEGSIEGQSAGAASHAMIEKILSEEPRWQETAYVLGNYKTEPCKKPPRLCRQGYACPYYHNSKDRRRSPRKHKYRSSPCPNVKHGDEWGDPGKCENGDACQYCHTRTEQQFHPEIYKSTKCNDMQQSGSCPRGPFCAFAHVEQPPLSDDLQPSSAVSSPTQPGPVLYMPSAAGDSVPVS
Oligonucleotide | bound/input enrichment [ratio]
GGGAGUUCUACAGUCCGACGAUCUUUUCCUUCAACCCCAAGCUGGAUAAGGAAGAACGGGAGCAGGGCUGGUUGCUGGUUGACCUCCGUGAAGAAUACAAGCGAAUGGGCCUCCCUGAUAAUUAUUGGCAGCUCAGCGAUGUGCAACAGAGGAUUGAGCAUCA | 0.134
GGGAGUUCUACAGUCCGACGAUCCGAAUGUUUGCUUACUUCCGACGCAACGCGGCCACGUGGAAGAAUGCAGUGCGUCAUAAUCUCCGUCUUCACAAGUGUUUUGUGCGAGUAGAAAACGUUAAAGGGGCAGUAUGGACAGUGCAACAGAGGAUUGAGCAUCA | 0.223
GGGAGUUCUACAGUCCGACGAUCCCCUUUGGCGGACCUUUUGAUGUGAGUAGAUGUUUUCUAGGAUAAAAUUUAAGGACUAAUUUCCGACUUAAAACAUUCCACUUUUGUAAGUUGUUUUCAGUGGUCUUAUGUAGAGCAAGCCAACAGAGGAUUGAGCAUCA | 1.6
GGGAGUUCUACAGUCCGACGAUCGGUGUGCCAGCUCUGACGCAGAACCUACCAAGGAUACUCAGAAAAGAACGCCCUAUAUCAUCCGGAAUUUUCCCAUUACCUGCUGGAGAUGGAUUGCUUACACCUGAUGCUCAGAAAGGACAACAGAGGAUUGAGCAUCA | 0.198
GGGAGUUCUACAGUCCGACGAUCACCCCUGCUUUGUACAUGCUGUCUCCCUUCAGUCCUCUCAGAAGAAUAUCUAUUAAGAUUUCCGUGCACUCCUUAUUCAGCAUGCUAAUCAUGUGCACAAUUCUGACAAACUGCAUAUUCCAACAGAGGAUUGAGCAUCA | 0.188
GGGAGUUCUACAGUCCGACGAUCGUAUAUAUUUCCAGGCUGCAUCUUCAGCCUGAUAUGUACUUUGUAGUUGCAACAGCGCCCCCGGUGCCCUAUGGCCCACCAAGUUUGAGGAGGGUGGUGCUUUCCGGAUUGAGCCUGGGCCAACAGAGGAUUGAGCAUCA | 0.156
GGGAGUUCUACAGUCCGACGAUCAGGAUAGUAAGUUCAGCUAAUGAACAAAAAAGAUUUGAGUUCUUGGUUUGGGCUAAAACUACCGAGAGAUCAUGCCCUUUUGUACGGUGCAGGUUAUUGUCAUUCGACCGAUAACUUAUUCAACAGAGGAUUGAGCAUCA | 0.113
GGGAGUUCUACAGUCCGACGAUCUCUCGGGGUUUCAAAACGUUGAAAUCAAGGACACGACGUUUGCAGUCUACCUCUGAAAGAUCCGCCGAAGCACAGAAUAUAGCACCAUCAUUUGUGAAGGGGUUUCUUUUGCGGGACAGACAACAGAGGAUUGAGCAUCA | 0.173

Series 2 — method: protein binding microarray; molecule type: double-stranded DNA, one strand shown; matrix: in vitro; tested at: not given; relative to: not given; direction: higher = stronger binding
Target: Histone acetyltransferase KAT6A, winged helix 2, GST fusion (KAT6A, Homo sapiens, UniProt Q92794, residues 85-181)
Setting: 8-mer, flanks averaged, mean of 2 arrays, mostly near background
Construct (chain): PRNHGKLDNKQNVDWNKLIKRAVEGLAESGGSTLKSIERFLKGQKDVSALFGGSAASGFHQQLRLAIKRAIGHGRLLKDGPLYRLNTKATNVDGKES
Oligonucleotide | E-score
TAGGTAAA | -0.216
CCTGCAGG | 0.201
CACAGCGC | 0.139
AAGAGGCG | -0.0159
ACCGCCGT | -0.0492
AAGATGTA | 0.00945
TCACTCAA | -0.0179
AGTTCCTA | -0.0838
GAGGTAAC | 0.0315
AGGCCGTG | 0.0436
AGGTGGTA | -0.114
AGGCCGAC | -0.099
TCGGATCA | 0.0432
CGTACTCC | 0.00928
CGCCTAGC | 0.0296
GACTGTTA | -0.154

Series 3 — target: CCND1, cyclin fold, Cln2 fusion (human); method: yeast growth competition, sequencing; matrix: yeast; setting: weak parent motif; relative to: not given; direction: higher = stronger binding
Parent: MICAL3 docking peptide (human); LQLRRQLSFSEDS
Change | normalised enrichment score
LQLRRGLSFSEDS [Q6G] | 0.136
LQLREQLSFSEDS [R5E] | 0.128
LYLRRQLSFSEDS [Q2Y] | 0.519
LQLRRQLVFSEDS [S8V] | -0.0627
LQLRRQLSFHEDS [S10H] | 0.0756
LQLRRILSFSEDS [Q6I] | 0.242
LQLRRQLSFSYDS [E11Y] | -0.0332
LLLRRQLSFSEDS [Q2L] | 0.55
LQYRRQLSFSEDS [L3Y] | -0.071
LQLRRQLSFQEDS [S10Q] | 0.0165
LQLRRQLSFWEDS [S10W] | -0.197
LQLRRQLLFSEDS [S8L] | 0.019
LQLLRQLSFSEDS [R4L] | -0.11
LQLRRQASFSEDS [L7A] | -0.164
LPLRRQLSFSEDS [Q2P] | 1.36
LQLRRQLSFSEAS [D12A] | 0.562
LQLRRQLSFSGDS [E11G] | 0.413
LQLRRQLSFSEES [D12E] | 0.519
LGLRRQLSFSEDS [Q2G] | 0.0541

Series 4 — method: RNA Bind-n-Seq; molecule type: RNA; matrix: in vitro; tested at: 365 nM; relative to: no-protein control; direction: higher = stronger binding
Target: RNA binding protein fox-1 homolog 2, RRM domain, GST-SBP tag (RBFOX2, Homo sapiens, UniProt O43251-10, residues 100-194)
Setting: natural RNA segment, single round, ends assumed
Residues (chain): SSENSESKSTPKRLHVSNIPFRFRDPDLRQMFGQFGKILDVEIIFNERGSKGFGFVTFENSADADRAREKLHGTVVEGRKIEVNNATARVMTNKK
Oligonucleotide | RBNS enrichment (R)
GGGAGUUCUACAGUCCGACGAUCGCCUGAUUUCGUCCAUAUUCUAGACUCUUAAGCUUGUCAAAUUCCAGAAAUGGAAAAAACUCUGCAAGAGAGUCUUGCUUUCAAGGAGAAAGGAAAAUGGCUUUGAAAAUUGGAAUUCUCGGGUGCCAA | 0.892
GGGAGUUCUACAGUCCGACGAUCACACCAGGGUCUGUCCUGGUCCUCAAGCCACGCACCCGCUAUGCCUGCACUGCAGCCCAGCCCCGGACAGCUCCAGGAUCCGUGCAGUGGCUGCGCCGCCAGGCCCCAACUGGAAUUCUCGGGUGCCAA | 0.322
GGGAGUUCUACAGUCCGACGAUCUGGGAAUAUAAUCUGUUUAGACGAUAAUAGAGGGAAAUGCCAUAAUUAACAAAUCUCCCUUCACUCACCACUAUCCUCAUUCUUGCAGUUGUCAAGGUGUAAGCCUCACUUGGAAUUCUCGGGUGCCAA | 0.238
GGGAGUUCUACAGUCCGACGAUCCUGGUGGGCUGAGGGAAGGUUUGUAGCUGCGUUUAGUGGUAUACAUCUUUAGUCCCAGCAUAGGCAGGUGAAUCUCGAGUUUGAAGCUAGCCUGGUCUAAAAAGGAAGUUUGGAAUUCUCGGGUGCCAA | 0.413
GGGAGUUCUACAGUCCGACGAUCAGCAAACGUCCACUGUCCUUUCUCUAUCCCCCUCACUCAGCCUACACGUUACUCCAGCGCUACUCUUGCCAUUACGCCCCGUGUUUCCGAGCACAGCUGGUCCUACCCCAUGGAAUUCUCGGGUGCCAA | 1.18
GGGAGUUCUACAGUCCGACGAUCUGUGAGGAUAAAUAUGCAUGCUUUUUGUAAUUAACUGGUGCUUUGAAAAUCUUUUUUAAGGGAGAAAAAUCUCAACCAAAGUUAUGCUCAUCCAGACAAGCUGACCUUUGUGGAAUUCUCGGGUGCCAA | 5.06
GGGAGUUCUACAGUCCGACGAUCGGCUUUUAUCCACCUUGAAUCCCUAUCCUCCUCUUUGUAGUUGUCGGUCUCACUGAUAACAGCUCCAGAAAAAAAGACAAGGCUCCCCCUCUGACCCUUCCUGUUGGUAUUGGAAUUCUCGGGUGCCAA | 0.343
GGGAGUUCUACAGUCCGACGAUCAUUGGUCUUAGUGCGUUUGUGCCCUUUGUUCUGGUCUGACUCUUGCGAAUCUCAGAGCAGGAGAAGUUGCAGCUUACUGAUCCCUCAGUGCUCACAGUACUCAUGUGGGGUGGAAUUCUCGGGUGCCAA | 0.316

Excerpt of the above (series 4):
Oligonucleotide | RBNS enrichment (R)
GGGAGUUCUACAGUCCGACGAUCUGUGAGGAUAAAUAUGCAUGCUUUUUGUAAUUAACUGGUGCUUUGAAAAUCUUUUUUAAGGGAGAAAAAUCUCAACCAAAGUUAUGCUCAUCCAGACAAGCUGACCUUUGUGGAAUUCUCGGGUGCCAA | 5.06
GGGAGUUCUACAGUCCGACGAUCGGCUUUUAUCCACCUUGAAUCCCUAUCCUCCUCUUUGUAGUUGUCGGUCUCACUGAUAACAGCUCCAGAAAAAAAGACAAGGCUCCCCCUCUGACCCUUCCUGUUGGUAUUGGAAUUCUCGGGUGCCAA | 0.343
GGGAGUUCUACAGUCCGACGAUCACACCAGGGUCUGUCCUGGUCCUCAAGCCACGCACCCGCUAUGCCUGCACUGCAGCCCAGCCCCGGACAGCUCCAGGAUCCGUGCAGUGGCUGCGCCGCCAGGCCCCAACUGGAAUUCUCGGGUGCCAA | 0.322
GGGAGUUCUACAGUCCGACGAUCCUGGUGGGCUGAGGGAAGGUUUGUAGCUGCGUUUAGUGGUAUACAUCUUUAGUCCCAGCAUAGGCAGGUGAAUCUCGAGUUUGAAGCUAGCCUGGUCUAAAAAGGAAGUUUGGAAUUCUCGGGUGCCAA | 0.413
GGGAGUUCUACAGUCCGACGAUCGCCUGAUUUCGUCCAUAUUCUAGACUCUUAAGCUUGUCAAAUUCCAGAAAUGGAAAAAACUCUGCAAGAGAGUCUUGCUUUCAAGGAGAAAGGAAAAUGGCUUUGAAAAUUGGAAUUCUCGGGUGCCAA | 0.892
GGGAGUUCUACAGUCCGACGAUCAUUGGUCUUAGUGCGUUUGUGCCCUUUGUUCUGGUCUGACUCUUGCGAAUCUCAGAGCAGGAGAAGUUGCAGCUUACUGAUCCCUCAGUGCUCACAGUACUCAUGUGGGGUGGAAUUCUCGGGUGCCAA | 0.316
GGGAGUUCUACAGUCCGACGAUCUGGGAAUAUAAUCUGUUUAGACGAUAAUAGAGGGAAAUGCCAUAAUUAACAAAUCUCCCUUCACUCACCACUAUCCUCAUUCUUGCAGUUGUCAAGGUGUAAGCCUCACUUGGAAUUCUCGGGUGCCAA | 0.238
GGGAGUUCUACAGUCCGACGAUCAGCAAACGUCCACUGUCCUUUCUCUAUCCCCCUCACUCAGCCUACACGUUACUCCAGCGCUACUCUUGCCAUUACGCCCCGUGUUUCCGAGCACAGCUGGUCCUACCCCAUGGAAUUCUCGGGUGCCAA | 1.18
